Assay results of several laboratories.
A part holds a random share of what one study measured.

Study 1 — method: protein-binding microarray; form: double-stranded DNA, one strand shown; sample: in vitro; tested at: not given; reading: higher = stronger binding; quantity: E-score
Target: Max-binding protein MNT, bHLH-zipper, MAX partner unstated (MNT, Homo sapiens, UniProt Q99583, residues 220-300)
Notes: k-mer, scored over probes, only values ≥0.25
Target sequence (chain): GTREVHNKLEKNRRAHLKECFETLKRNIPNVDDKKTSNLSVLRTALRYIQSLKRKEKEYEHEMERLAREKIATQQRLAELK
ATGTGCGG: 0.385
GCATGATA: 0.282
ACGCTGCA: 0.298
AGCCATGC: 0.372
CGCATGGA: 0.401
CATGGTAG: 0.345
CAATGTGG: 0.302
ATTCATGC: 0.282
CGTGGAAA: 0.351
ACGTGCTG: 0.46
CATGGGTA: 0.269

Study 2 — method: universal PBM; form: double-stranded DNA, one strand shown; sample: in vitro; tested at: 600 nM; reading: higher = stronger binding; quantity: E-score
Target: Sal-like protein 4, full length isoform A (SALL4, Homo sapiens, UniProt Q9UJQ4, residues 1-1053)
Chain of UniProt Q9UJQ4 (whole entry, looked up): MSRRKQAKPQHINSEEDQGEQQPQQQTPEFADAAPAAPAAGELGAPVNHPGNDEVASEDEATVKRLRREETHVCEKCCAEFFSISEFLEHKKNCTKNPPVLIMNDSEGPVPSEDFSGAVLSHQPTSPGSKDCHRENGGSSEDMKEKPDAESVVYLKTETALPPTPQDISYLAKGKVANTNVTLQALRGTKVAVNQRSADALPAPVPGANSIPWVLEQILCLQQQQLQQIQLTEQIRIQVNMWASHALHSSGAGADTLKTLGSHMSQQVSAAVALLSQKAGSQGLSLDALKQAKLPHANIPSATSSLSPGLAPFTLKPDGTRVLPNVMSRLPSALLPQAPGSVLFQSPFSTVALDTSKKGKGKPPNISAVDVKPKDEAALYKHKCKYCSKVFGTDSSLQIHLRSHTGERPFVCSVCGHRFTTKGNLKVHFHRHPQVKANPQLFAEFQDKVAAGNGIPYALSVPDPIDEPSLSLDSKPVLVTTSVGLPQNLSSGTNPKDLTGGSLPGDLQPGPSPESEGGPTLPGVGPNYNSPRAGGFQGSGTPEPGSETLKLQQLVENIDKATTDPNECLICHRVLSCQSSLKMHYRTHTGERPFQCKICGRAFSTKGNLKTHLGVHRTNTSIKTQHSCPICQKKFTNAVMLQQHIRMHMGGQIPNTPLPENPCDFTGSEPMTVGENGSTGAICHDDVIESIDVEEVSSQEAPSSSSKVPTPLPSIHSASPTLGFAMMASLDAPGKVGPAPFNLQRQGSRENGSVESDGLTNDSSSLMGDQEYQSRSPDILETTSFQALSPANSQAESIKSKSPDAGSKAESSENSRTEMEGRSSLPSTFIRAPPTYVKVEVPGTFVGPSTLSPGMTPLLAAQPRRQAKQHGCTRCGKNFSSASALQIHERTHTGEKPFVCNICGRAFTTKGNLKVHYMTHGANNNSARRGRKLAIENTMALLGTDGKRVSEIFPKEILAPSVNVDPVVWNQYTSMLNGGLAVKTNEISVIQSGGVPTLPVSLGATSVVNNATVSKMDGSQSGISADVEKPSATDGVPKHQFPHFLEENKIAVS
Notes: 8-mer, flanks averaged, mean of replicates
GCGAATTA: 0.24
CCGTAAGC: -0.184
CAGAGGAG: -0.117
AGGTCGTC: -0.155
ATAACCCC: -0.0226
ACAATAAA: 0.345
TAGAACGA: 0.126
CCACCAAG: -0.293
CAGGTCAG: -0.0978
AATGCACA: 0.176
ACTCTTCT: -0.0605
CTCAATGA: -0.023

Study 3 — method: competition protein-binding microarray; form: double-stranded DNA, one strand shown; sample: in vitro; tested at: 2 µM; together with: Pho4 competitor, 0.05 µM; reading: higher = stronger binding; quantity: fluorescence intensity; shared flanks, not repeated: … GTCTTGATTCGCTTGACGCTGCTG
Target: Centromere-binding protein 1, full length, His-tagged (CBF1, Saccharomyces cerevisiae, UniProt P17106, residues 1-351)
Chain of UniProt P17106 (whole entry, looked up): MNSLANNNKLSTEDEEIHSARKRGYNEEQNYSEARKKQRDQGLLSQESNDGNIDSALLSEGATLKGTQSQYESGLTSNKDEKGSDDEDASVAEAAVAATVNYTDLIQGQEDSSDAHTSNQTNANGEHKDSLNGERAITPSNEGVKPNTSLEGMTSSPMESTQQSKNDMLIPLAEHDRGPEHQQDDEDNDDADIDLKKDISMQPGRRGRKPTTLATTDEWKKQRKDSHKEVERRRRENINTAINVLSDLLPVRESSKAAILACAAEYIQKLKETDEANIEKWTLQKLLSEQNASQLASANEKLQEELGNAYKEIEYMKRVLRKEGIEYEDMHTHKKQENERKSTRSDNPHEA
Notes: whole 60-bp probe, lowest competitor level
AGGTTACCGCCATCTCACCTGCAGCTTGGATCCTGA: 65.6 a.u.
TTCCCAGTGAAATTTCACGTGATGGAATCTGATGAA: 2250 a.u.
ATGTTCCTGAGGTTCCACGTGCAAAGCTAGAAGAAA: 981 a.u.
TCAAGAAAAATTCATCACCTGACTGCAAAATAAAGC: 2440 a.u.
TTTTACAGCTGCAATCAGGTGGATTCGTTTCTTCGA: 105 a.u.
GCGACATCAACGAGTCACGTGACGGGCACTGCGTCG: 26700 a.u.
AACGCCATGGCCTGTCACCTGATGCATTTATTCAAC: 1060 a.u.
AAGATATTGTTCGACCATGTGTTAAATGCCAGTAAT: 169 a.u.
TACTGGAGTATTCGTCACGTGCCAGTGTGGCCCTGT: 7470 a.u.

Single results of other studies
PhoQ, residues 284 288 289 292 302 303 SCCLKL  fold induction (PhoP, residues 12 14 15 18 19 SFCSL (Escherichia coli, UniProt P23836); Sort-seq, refers to: YFP reporter; E. coli; PhoQ-PhoP variant library, together with: 10 µM Mg2+; relative to: high Mg2+ state, higher = stronger signaling): 8.45
